Experimental data pooled from the literature.
Parts stem from different laboratories: compare values within a part only.
Chain of UniProt Q8N4C8 (whole entry, looked up): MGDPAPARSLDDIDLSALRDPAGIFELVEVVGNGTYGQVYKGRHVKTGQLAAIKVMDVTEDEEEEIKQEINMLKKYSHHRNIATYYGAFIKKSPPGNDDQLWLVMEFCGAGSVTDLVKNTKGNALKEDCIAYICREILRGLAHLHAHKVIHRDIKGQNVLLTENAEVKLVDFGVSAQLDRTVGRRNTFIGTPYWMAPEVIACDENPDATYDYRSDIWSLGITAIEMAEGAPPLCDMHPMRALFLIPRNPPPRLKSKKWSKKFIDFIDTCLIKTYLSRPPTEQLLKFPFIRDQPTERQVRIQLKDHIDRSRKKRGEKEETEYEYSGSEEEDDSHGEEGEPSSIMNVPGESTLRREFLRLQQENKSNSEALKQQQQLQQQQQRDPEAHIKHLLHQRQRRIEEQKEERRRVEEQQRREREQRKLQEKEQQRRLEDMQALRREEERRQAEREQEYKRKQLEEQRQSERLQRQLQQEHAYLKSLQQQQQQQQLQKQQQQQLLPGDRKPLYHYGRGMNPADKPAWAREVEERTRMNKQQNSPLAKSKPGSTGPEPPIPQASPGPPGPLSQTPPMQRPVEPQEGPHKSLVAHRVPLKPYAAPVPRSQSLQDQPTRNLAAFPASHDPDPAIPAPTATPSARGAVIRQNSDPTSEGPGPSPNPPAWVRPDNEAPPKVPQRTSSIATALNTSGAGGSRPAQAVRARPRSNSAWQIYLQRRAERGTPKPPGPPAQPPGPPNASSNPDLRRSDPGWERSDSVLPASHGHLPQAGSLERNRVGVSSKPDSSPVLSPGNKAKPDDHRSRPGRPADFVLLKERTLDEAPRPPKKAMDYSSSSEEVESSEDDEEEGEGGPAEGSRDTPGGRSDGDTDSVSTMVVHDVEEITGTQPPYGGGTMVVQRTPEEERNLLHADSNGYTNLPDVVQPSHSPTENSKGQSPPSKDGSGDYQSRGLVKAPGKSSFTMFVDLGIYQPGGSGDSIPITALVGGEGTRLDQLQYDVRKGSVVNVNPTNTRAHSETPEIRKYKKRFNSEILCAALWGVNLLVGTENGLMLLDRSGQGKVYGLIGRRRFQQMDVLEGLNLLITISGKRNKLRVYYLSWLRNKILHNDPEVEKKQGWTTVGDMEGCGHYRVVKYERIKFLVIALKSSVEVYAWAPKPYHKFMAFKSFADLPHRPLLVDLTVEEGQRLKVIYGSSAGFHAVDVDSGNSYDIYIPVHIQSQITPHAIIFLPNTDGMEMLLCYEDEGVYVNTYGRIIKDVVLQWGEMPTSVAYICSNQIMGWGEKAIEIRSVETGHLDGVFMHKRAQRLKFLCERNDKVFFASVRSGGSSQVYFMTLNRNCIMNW
Chain of UniProt Q15418 (whole entry, looked up): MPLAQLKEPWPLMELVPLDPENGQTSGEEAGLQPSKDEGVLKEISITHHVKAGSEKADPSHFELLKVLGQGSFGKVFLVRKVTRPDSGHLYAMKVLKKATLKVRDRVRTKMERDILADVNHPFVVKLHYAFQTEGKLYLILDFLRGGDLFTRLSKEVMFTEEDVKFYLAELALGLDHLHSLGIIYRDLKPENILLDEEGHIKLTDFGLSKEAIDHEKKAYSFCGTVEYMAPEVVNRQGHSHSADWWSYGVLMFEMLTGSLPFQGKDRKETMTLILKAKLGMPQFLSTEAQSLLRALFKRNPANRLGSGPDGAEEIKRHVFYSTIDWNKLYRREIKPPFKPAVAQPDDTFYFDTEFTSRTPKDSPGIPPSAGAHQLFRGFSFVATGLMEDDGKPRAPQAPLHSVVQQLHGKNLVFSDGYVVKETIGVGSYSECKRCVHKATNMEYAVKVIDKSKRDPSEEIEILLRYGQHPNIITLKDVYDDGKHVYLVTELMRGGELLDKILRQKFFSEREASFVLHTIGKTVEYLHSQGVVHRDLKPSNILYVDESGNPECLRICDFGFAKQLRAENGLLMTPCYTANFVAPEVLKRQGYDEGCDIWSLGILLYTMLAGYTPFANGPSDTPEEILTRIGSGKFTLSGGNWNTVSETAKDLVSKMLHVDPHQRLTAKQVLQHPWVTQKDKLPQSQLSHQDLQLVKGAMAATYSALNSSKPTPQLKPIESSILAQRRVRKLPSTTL
Chain of UniProt P04629 (whole entry, looked up): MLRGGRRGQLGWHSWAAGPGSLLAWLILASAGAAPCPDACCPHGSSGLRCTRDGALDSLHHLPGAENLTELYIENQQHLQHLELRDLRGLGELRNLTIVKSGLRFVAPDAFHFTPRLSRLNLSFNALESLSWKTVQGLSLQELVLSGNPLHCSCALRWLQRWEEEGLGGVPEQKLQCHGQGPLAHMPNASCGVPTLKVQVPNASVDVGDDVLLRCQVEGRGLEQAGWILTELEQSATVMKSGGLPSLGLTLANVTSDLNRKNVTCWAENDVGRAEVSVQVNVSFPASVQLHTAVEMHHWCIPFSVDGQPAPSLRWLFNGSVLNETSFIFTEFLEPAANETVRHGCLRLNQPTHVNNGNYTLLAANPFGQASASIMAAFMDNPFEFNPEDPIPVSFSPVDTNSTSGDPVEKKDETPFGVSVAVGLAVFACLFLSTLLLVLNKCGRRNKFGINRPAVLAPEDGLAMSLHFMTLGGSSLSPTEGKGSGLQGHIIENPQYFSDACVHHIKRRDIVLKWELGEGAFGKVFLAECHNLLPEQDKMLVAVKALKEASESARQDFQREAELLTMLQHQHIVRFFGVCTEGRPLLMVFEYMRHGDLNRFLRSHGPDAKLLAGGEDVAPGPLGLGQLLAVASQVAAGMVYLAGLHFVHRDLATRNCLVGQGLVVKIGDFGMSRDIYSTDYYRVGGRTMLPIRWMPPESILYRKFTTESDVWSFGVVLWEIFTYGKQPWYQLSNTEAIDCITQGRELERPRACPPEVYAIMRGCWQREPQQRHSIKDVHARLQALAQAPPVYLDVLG
Chain of UniProt P53778 (whole entry, looked up): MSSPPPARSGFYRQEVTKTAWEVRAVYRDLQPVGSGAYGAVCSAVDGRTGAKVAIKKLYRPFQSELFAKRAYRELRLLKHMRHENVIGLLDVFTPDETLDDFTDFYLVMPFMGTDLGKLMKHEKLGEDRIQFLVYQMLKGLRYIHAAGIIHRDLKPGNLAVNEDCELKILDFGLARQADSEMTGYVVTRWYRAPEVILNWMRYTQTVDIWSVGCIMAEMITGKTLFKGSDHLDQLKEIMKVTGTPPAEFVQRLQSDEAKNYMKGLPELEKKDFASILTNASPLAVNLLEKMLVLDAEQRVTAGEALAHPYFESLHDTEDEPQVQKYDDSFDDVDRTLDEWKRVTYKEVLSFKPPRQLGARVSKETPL
Chain of UniProt Q16539 (whole entry, looked up): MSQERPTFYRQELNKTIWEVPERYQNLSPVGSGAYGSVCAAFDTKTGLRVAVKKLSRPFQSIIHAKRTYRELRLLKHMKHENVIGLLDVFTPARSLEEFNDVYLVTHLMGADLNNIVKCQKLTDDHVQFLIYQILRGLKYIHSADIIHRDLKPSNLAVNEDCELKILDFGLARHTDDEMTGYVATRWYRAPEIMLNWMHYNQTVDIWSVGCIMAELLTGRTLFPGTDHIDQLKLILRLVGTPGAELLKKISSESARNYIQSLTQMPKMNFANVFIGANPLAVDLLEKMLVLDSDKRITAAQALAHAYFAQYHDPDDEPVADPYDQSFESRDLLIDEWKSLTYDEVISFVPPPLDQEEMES
Chain of UniProt P45984 (whole entry, looked up): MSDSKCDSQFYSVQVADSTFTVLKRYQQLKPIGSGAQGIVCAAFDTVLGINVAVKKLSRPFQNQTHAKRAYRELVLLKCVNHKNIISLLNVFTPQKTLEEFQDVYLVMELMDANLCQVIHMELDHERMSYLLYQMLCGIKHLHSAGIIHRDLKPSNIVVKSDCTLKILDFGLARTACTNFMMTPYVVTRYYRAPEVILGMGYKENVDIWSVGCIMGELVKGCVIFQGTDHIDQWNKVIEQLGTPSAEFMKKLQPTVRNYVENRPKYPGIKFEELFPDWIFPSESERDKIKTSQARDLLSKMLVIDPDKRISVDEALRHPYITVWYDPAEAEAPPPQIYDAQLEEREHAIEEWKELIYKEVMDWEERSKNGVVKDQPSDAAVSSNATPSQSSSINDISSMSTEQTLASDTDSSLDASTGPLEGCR

Block 1
Cell line: mouse MPNST tumor cells
Technique: high-content immunofluorescence imaging
Item: nuclear SOX9
Concentration: 10 µM
Time: 12 h
Setting: mean of 2 replicates
Relative to: DMSO control
Direction: higher = more nuclear SOX9
Endpoint: nuclear SOX9 intensity
CC(C)/N=c1\cc2n(-c3ccc(Cl)cc3)c3ccccc3nc-2cc1Nc1ccc(Cl)cc1: 142 % of DMSO
Clc1ccc(C(Cn2ccnc2)OCc2ccsc2Cl)c(Cl)c1 (centres unmarked): 112 % of DMSO
CCOC(=O)[C@H](C)C[C@@H](Cc1ccc(-c2ccccc2)cc1)NC(=O)CCC(=O)O: 89.5 % of DMSO
Cc1nccn1CC1CCc2c(c3ccccc3n2C)C1=O (centres unmarked): 98.4 % of DMSO

Block 2
Structure (SMILES): C[C@H](NC(=O)c1cnc2n1[C@](C)(Cc1ccc(C#N)cc1)C(=O)N2c1cc(Cl)c(F)c(Cl)c1)C(=O)NC1(c2ccccn2)CC1
Observed: cell-free assay
Technique: competition with immobilised ligand
Concentration: 1 µM
Endpoint: remaining binding
ACVR1 (Homo sapiens, UniProt Q04771): 97%
HUNK (Homo sapiens, UniProt P57058): 100%
MST1R (Homo sapiens, UniProt Q04912): 100%
MAPK12 (Homo sapiens, UniProt P53778): 100%
CASK (Homo sapiens, UniProt O14936): 100%
NTRK1 (Homo sapiens, UniProt P04629): 98%
MINK1 (Homo sapiens, UniProt Q8N4C8): 100%
ULK3 (Homo sapiens, UniProt Q6PHR2): 100%
MAPK9 (Homo sapiens, UniProt P45984): 92%
Ribosomal protein S6 kinase alpha-1, N-terminal kinase domain (RPS6KA1, Homo sapiens, UniProt Q15418): 100%
PRKD2 (Homo sapiens, UniProt Q9BZL6): 100%
EGFR (Homo sapiens, UniProt P00533): 100%
SIK3 (Homo sapiens, UniProt Q9Y2K2): 76%
MAPK14 (Homo sapiens, UniProt Q16539): 100%
Tyrosine-protein kinase JAK1, JH1 (JAK1, Homo sapiens, UniProt P23458): 100%
PIM2 (Homo sapiens, UniProt Q9P1W9): 100%

Block 3
Cell line: Huh-7
Concentration: 10 µM
Time: 24 h
Endpoint: viability
Cn1c([N+](=O)[O-])cnc1COC(N)=O: 98.2%
CCCCCC(C)N (centres unmarked): 103%
O=C(c1ccccc1)c1ccc2n1CCC2C(=O)O (centres unmarked): 99.4%
CC(O)(P(=O)(O)O)P(=O)(O)O: 104%

Block 4
SMILES: CC(C)[C@H](CO)Nc1nc(Nc2cccc(Cl)c2)c2ncn(C(C)C)c2n1
Endpoint: IC50
protein Tb427tmp.01.8470; kinobead TMT proteomics; Trypanosoma brucei, cell lysate: > 10 µM
protein Tb427tmp.211.1150; kinobead TMT proteomics; Trypanosoma brucei, cell lysate: > 10 µM
Trypanosoma brucei protein Tb427tmp.02.1690; binding, kinobead competition; Trypanosoma brucei lysate: > 10 µM
protein Tb427tmp.50.0005; kinobead TMT proteomics; Trypanosoma brucei, cell lysate: > 10 µM
Trypanosoma brucei protein Tb427tmp.160.2490; binding, kinobead competition; Trypanosoma brucei lysate: > 10 µM

Block 5
Target: Macrophage colony-stimulating factor 1 receptor (CSF1R, Homo sapiens, UniProt P07333)
Chain of UniProt P07333 (whole entry, looked up): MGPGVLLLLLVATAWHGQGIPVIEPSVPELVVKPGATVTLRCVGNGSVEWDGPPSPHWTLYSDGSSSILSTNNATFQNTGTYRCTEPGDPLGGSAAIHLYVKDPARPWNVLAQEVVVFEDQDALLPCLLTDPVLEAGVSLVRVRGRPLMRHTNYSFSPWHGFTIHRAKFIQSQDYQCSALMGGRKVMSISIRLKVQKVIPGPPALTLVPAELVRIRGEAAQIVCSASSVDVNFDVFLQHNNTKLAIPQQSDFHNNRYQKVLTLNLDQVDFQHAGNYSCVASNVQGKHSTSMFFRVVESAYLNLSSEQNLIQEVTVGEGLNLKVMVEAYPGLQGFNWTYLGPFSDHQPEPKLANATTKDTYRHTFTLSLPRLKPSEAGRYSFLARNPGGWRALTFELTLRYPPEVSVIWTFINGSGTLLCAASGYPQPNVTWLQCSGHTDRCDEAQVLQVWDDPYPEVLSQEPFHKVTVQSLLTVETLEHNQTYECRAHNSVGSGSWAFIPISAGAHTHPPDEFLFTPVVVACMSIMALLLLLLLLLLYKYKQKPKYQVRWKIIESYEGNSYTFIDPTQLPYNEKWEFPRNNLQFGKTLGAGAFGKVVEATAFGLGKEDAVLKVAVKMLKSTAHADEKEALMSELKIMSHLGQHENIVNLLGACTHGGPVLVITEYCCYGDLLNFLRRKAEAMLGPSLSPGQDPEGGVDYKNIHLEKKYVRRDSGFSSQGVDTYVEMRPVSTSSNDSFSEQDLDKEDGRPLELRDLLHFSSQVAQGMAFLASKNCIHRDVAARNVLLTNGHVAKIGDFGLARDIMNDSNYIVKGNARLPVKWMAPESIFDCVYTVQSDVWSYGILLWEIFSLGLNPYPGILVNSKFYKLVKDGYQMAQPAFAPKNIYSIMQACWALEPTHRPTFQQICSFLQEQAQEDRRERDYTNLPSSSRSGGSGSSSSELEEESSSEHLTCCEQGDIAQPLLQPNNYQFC
Observed: enzyme activity
Mode: inhibitor
Concentration: 0.5 µM
Relative to: control
Endpoint: remaining activity
O=C1c2ccccc2-c2n[nH]c3cccc1c23: 86.7%
CCN(CC)C(=O)c1ccc(Nc2nc(OCC3CCCCC3)c3[nH]cnc3n2)cc1: 5.73%
Nc1cccc(-c2cc3c(Oc4cccc(O)c4)ncnc3[nH]2)c1: 13.6%
Cc1cn(-c2cc(NC(=O)c3ccc(C)c(Nc4nccc(-c5cccnc5)n4)c3)cc(C(F)(F)F)c2)cn1: 17.5%
CN(C)C[C@H]1CCn2c(c(C3=C(c4cn(C)c5ccccc45)C(=O)NC3=O)c3ccccc32)C1: 98.1%

Other studies, line by line
CC(C)n1cnc(-c2ccc(F)cc2)c1-c1ncc(C(=O)Nc2ccc(N3CCN(C)CC3)cc2)[nH]1
patients with Infection TEAE (phase 2a clinical trial; patients with idiopathic pulmonary fibrosis; 30 mg once daily): 0%

A few entries again (block 1):
CC(C)/N=c1\cc2n(-c3ccc(Cl)cc3)c3ccccc3nc-2cc1Nc1ccc(Cl)cc1: 142 % of DMSO
Clc1ccc(C(Cn2ccnc2)OCc2ccsc2Cl)c(Cl)c1 (centres unmarked): 112 % of DMSO
CCOC(=O)[C@H](C)C[C@@H](Cc1ccc(-c2ccccc2)cc1)NC(=O)CCC(=O)O: 89.5 % of DMSO
Cc1nccn1CC1CCc2c(c3ccccc3n2C)C1=O (centres unmarked): 98.4 % of DMSO
